{"data": "Measured values pooled from the literature", "note": "Each line is one published result; not all experiments were run side by side. ± marks the error that the study gave."}
{"SMILES": "CNC(C)Cc1ccc2c(c1)OCO2 (centres unmarked)", "assay": "seizure incidence", "system": "C57Bl/6J mice, both sexes", "setting": "intraperitoneal, 2 h, dose as base", "measurement": "ED50", "value": "116 mg/kg"}
{"SMILES": "C[C@H]1N=C(c2ccccc2F)c2cc(Br)ccc2NC1=O", "assay": "shake flask", "system": "PBS", "setting": "24 h, pH 7.4", "measurement": "solubility", "value": "35.7 µM"}
{"SMILES": "COC(=O)[C@@H](NC(=O)c1nn(Cc2ccc(F)cc2)c2ccccc12)C(C)C", "assay": "HPLC", "system": "rat liver microsomes", "setting": "1.15 µg/mL, 12.5 min, without NADPH, 1 mg/mL protein", "scale": "relative to: no microsomes", "measurement": "metabolism", "value": "~50%"}
{"SMILES": "Cc1ncc2n1-c1ccc(Cl)cc1C(c1ccccc1F)=NC2", "system": "healthy human volunteers, plasma", "setting": "oral, 7.5 mg single dose, geometric mean, alone", "measurement": "AUC(0-t)", "value": "93.9 ng·h/mL"}
{"SMILES": "COc1c(N2CCNC(C)C2)c(F)cc2c(=O)c(C(=O)O)cn(C3CC3)c12 (centres unmarked)", "system": "THP-1 caseum surrogate", "setting": "5 µM, 4 h, 37 °C", "measurement": "fraction unbound", "value": "0.188 ± 0.029"}
{"SMILES": "C=C1C[C@@H]2[C@H](CC[C@]3(C)C(=O)CC[C@@H]23)[C@@]2(C)C=CC(=O)C=C12", "assay": "LC-MS/MS", "system": "postmenopausal breast cancer women, plasma", "setting": "oral, 25 mg/day, 2 h, CYP3A4*22 non-carriers, White only", "measurement": "median plasma concentration", "value": "7.8 ng/mL"}
{"SMILES": "C[C@@H]1N=C(c2ccccc2F)c2cc(Br)ccc2NC1=O", "assay": "rapid equilibrium dialysis", "system": "rat brain homogenate", "setting": "5 µM, 4 h, 37 °C", "measurement": "fraction unbound", "value": 0.0141}
{"SMILES": "Oc1ccc2c(c1)[C@@]13CCCC[C@@]1(O)[C@@H](C2)N(CC1CCC1)CC3", "system": "Beagle dog, both sexes", "setting": "intravenous infusion, 0.2 mg/kg loading then 0.2 mg/kg/h, 8 h", "measurement": "clearance", "value": "77.3 mL/min/kg"}
{"SMILES": "Nc1ccc(C(=O)O)c(O)c1", "system": "THP-1 caseum surrogate", "setting": "5 µM, 4 h, 37 °C", "measurement": "fraction unbound", "value": "0.511 ± 0.112"}
{"SMILES": "C[C@]12CC[C@H]3[C@@H](CCC4=CC(=O)CC[C@@]43C)[C@@H]1CC[C@@H]2O", "system": "excised human skin, female", "setting": "6 nmol/cm^2, 6 h, 32 °C, 100% ethanol vehicle", "measurement": "cumulative permeation", "value": "0.33 ± 0.13 nmol/cm²"}
{"SMILES": "COc1ccsc1CNCC[C@@]1(c2ccccn2)CCOC2(CCCC2)C1", "system": "healthy human, normal renal function, plasma", "setting": "intravenous, 1 mg single dose, geometric mean", "measurement": "AUC(0-t)", "value": "17.8 ng·h/mL"}
{"SMILES": "CCC[C@@H](C(=O)c1ccccc1)N1CCCC1", "assay": "heart rate, telemetry", "system": "male Sprague-Dawley rat", "setting": "subcutaneous, 3 h session mean", "measurement": "ED50", "value": "0.25 mg/kg"}
{"SMILES": "N[C@@]1(c2ccccc2Cl)CC[C@@H](O)CC1=O", "system": "female CD-1 mice, plasma", "setting": "intraperitoneal, 5 mg/kg", "measurement": "dose-normalized Cmax", "value": "133 ± 7.8 ng/mL per mg/kg"}
{"SMILES": "Cn1nnc(-c2ccc(-c3ccc(N4C[C@H](CO)OC4=O)cc3F)cn2)n1", "system": "THP-1 caseum surrogate", "setting": "5 µM, 4 h, 37 °C", "measurement": "fraction unbound", "value": "0.137 ± 0.027"}
{"SMILES": "CN[C@@](C)(C[18F])C(=O)O", "tested on": "A549 tumour model", "system": "host not given, kidney", "setting": "30 min, tumour-bearing", "measurement": "tracer uptake", "value": "15 %ID/g"}
{"SMILES": "CC(=O)NNC(=O)c1ccncc1", "system": "rabbit plasma", "setting": "5 µM, 4 h, 37 °C", "measurement": "fraction unbound", "value": "89.4 ± 4.7%"}
{"SMILES": "CCCC(C(=O)c1ccc(O)c(OC)c1)N1CCCC1 (centres unmarked)", "system": "human plasma", "setting": "25 µg/L, 24 h, Medium QC, room temperature", "scale": "relative to: freshly fortified plasma", "measurement": "stability", "value": "3.7 % difference"}
{"SMILES": "COc1ccc2c(c1)[C@]13CCCC[C@@H]1[C@H](C2)N(C)CC3", "system": "Wistar rat, both sexes, plasma", "setting": "oral, 5 mg/kg, 2 h after pretreatment, with: single TCE 400 mg/kg", "measurement": "MRT(0-inf)", "value": "2.91 ± 0.82 h"}
{"SMILES": "CCCCCCCCCCC(=O)O[C@H]1CC[C@H]2[C@@H]3CCC4=CC(=O)CC[C@]4(C)[C@H]3CC[C@]12C", "system": "human blood", "setting": "300 ng/mL, 60 min, 4 °C, NaF 5 mg/mL, K2 oxalate 4 mg/mL", "scale": "relative to: no compound added", "measurement": "testosterone change", "value": "14.3%"}
{"SMILES": "CN1CC[C@@]23CCCC[C@@H]2[C@@H]1Cc1ccc(O)cc13", "system": "Wistar rat, both sexes, plasma", "setting": "oral, 5 mg/kg DEM, DEM 2 h after pretreatment, with: TCE 100 mg/kg single pretreatment", "measurement": "AUC(0-inf)", "value": "74.5 ± 38.8 ng·h/mL"}
{"SMILES": "CC[C@@H](CO)NCCN[C@@H](CC)CO", "system": "THP-1 caseum surrogate", "setting": "5 µM, 4 h, 37 °C", "measurement": "fraction unbound", "value": "0.388 ± 0.056"}
{"SMILES": "Cc1ncc2n1-c1ccc(Cl)cc1C(c1ccccc1F)=NC2", "system": "human CYP3A5*3/*7, serum", "setting": "with: ketoconazole 400 mg", "measurement": "terminal half-life", "value": "19.3 h"}
{"SMILES": "CN[C@@H](C)Cc1ccccc1", "system": "C57BL/6 mouse", "setting": "intraperitoneal, single dose", "measurement": "LD50", "value": "105 mg/kg"}
{"SMILES": "CS(=O)(=O)N1CCC(Oc2ccc(CC(=O)N3CCC(N4C(=O)CCc5ccccc54)CC3)c(OC/C=C/[125I])c2)CC1", "assay": "radio-HPLC, item: free iodide-125", "system": "10% ethanol in saline", "setting": "45 days, storage stability", "measurement": "decomposition", "value": "15 to 20%"}
{"SMILES": "CC(=O)Nc1ccc2oc(-c3ccnc(C(=O)N4CCN([C@H](c5ccccc5)c5nnn(C)n5)CC4)c3)nc2c1", "system": "mouse, plasma", "setting": "oral, 10 mg/kg", "measurement": "Cmax", "value": "2100 nM"}
{"SMILES": "CCCC(C(=O)c1ccc2c(c1)OCO2)N1CCCC1 (centres unmarked)", "system": "human plasma", "setting": "0.75 µg/L, 24 h, Low QC, room temperature", "scale": "relative to: freshly fortified plasma", "measurement": "stability", "value": "10.7 % difference"}
{"SMILES": "N[C@@]1(c2ccccc2Cl)C[C@H](O)CCC1=O", "system": "female CD-1 mice, plasma", "setting": "intraperitoneal, 5 mg/kg", "measurement": "dose-normalized Cmax", "value": "505 ± 19 ng/mL per mg/kg"}
{"SMILES": "CNC(C)Cc1ccc2c(c1)OCO2 (racemic)", "system": "human", "setting": "oral, 0.75 mg/kg, mean over session, unit not given", "scale": "relative to: pre-dose baseline", "measurement": "change in systolic blood pressure", "value": 14.5}
{"SMILES": "N[C@@]1(c2ccccc2Cl)CCC[C@H](O)C1=O", "system": "female CD-1 mice, plasma", "setting": "intraperitoneal, 5 mg/kg", "measurement": "dose-normalized Cmax", "value": "169 ± 8.2 ng/mL per mg/kg"}
{"SMILES": "Cc1ncc(OC[C@@]2(c3cccc(F)c3)C[C@H]2C(=O)Nc2ccc(F)cn2)c(C)n1", "system": "human, plasma", "setting": "10 mg single dose, alone, mean", "measurement": "AUC(0-t)", "value": "366 ng·h/mL"}
{"SMILES": "CNC(C)C(=O)c1ccc(C)cc1 (centres unmarked)", "assay": "seizure incidence", "system": "C57Bl/6J mice, both sexes", "setting": "intraperitoneal, 2 h, dose as salt", "measurement": "ED50", "value": "124 mg/kg"}
{"SMILES": "CN1C(=O)CC(=O)N(c2ccccc2)c2cc(Cl)ccc21", "system": "CF-1 mouse, brain", "setting": "intraperitoneal, 17 mg/kg", "measurement": "Cmax", "value": "5.93 ng/mg"}
{"SMILES": "C[C@H]1CNCCc2ccc(Cl)cc21", "system": "Sprague-Dawley rat, male, plasma", "setting": "subcutaneous, 1 mg/kg, 60 min", "measurement": "plasma concentration", "value": "21.1 ± 1.06 ng/mL"}
{"SMILES": "CCCC(C(=O)c1ccc(O)c(O)c1)N1CCCC1 (centres unmarked)", "system": "human plasma", "setting": "750 µg/L, 24 h, High QC, room temperature", "scale": "relative to: freshly fortified plasma", "measurement": "stability", "value": "4.2 % difference"}
{"SMILES": "CC(C)C[C@H](CN)CC(=O)O", "system": "human, plasma", "setting": "oral, 150 mg, geometric mean", "measurement": "AUC", "value": "15300 ng·h/mL"}
{"note": "A few entries again:"}
{"SMILES": "CNC(C)Cc1ccc2c(c1)OCO2 (racemic)", "system": "human", "setting": "oral, 0.75 mg/kg, mean over session, unit not given", "scale": "relative to: pre-dose baseline", "measurement": "change in systolic blood pressure", "value": 14.5}
{"SMILES": "N[C@@]1(c2ccccc2Cl)CCC[C@H](O)C1=O", "system": "female CD-1 mice, plasma", "setting": "intraperitoneal, 5 mg/kg", "measurement": "dose-normalized Cmax", "value": "169 ± 8.2 ng/mL per mg/kg"}
{"SMILES": "Cc1ncc(OC[C@@]2(c3cccc(F)c3)C[C@H]2C(=O)Nc2ccc(F)cn2)c(C)n1", "system": "human, plasma", "setting": "10 mg single dose, alone, mean", "measurement": "AUC(0-t)", "value": "366 ng·h/mL"}
